# Measured values gathered from unrelated publications.
# Numbered parts are unrelated; each lists some results of a single study. Values joined by “and” are separate records of one study, mostly repeats; a detail may differ. ± marks the error that the study gave.

# Study 1
# SMILES: Cc1ccc(O)c(C)c1-c1cnc2[nH]c(-c3cnc(N4CCC(CCN5CCN(c6ccc(NC7CCC(=O)NC7=O)cc6F)CC5)CC4)nc3)cc2c1C#N (stereo not drawn)
# Target: Membrane-associated tyrosine- and threonine-specific cdc2-inhibitory kinase (PKMYT1, Homo sapiens, UniProt Q99640)
# Construct (Q99640 1-499): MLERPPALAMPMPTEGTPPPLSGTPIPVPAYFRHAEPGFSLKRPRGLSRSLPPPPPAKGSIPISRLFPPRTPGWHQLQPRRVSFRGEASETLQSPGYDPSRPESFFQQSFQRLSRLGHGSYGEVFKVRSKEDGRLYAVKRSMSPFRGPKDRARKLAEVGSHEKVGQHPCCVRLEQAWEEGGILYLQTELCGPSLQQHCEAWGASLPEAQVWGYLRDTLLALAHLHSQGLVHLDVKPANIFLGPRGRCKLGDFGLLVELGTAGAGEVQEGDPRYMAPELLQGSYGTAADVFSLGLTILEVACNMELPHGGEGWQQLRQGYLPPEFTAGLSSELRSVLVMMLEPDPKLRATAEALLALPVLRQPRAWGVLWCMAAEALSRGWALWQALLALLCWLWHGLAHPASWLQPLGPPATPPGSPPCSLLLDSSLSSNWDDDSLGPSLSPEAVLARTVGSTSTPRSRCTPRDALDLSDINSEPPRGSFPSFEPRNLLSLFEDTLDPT
assay,setting,inhibition
"cell-free assay, inhibitor, TR-FRET",460 pM,0.4%
"cell-free assay, inhibitor, TR-FRET",37.04 nM,96.2%
,1 µM,99.4%
,0.3333 µM,98.8%
"cell-free assay, inhibitor, TR-FRET",0.3333 µM,100%
,0.00137 µM,17.6%
"cell-free assay, inhibitor, TR-FRET",12.35 nM,89.2%
,0.00046 µM,2.42%
,5.1e-05 µM,-6.97%
"cell-free assay, inhibitor, TR-FRET",0.1111 µM,97.9%

# Study 2
# Organism: Arabidopsis thaliana
# Strain: Col-0
# Concentration: 6.25 µg/mL
# Notes: seed germination, single repetition
Compound,hypocotyl length
CC(C)(C)c1ccc(Oc2ccc3c(c2)OC(O)(C(=O)O)C(=O)N3Cc2ccccc2)cc1 (stereo not drawn),2.02 cm and 2.12 cm and 1.98 cm and 2.04 cm
CCCN1C(=O)C(O)(C(=O)O)Oc2cc(F)ccc21 (stereo not drawn),2.16 cm and 2.2 cm and 2.11 cm
CCN1C(=O)C(O)(C(=O)O)Oc2cc(F)ccc21 (stereo not drawn),2.07 cm and 1.99 cm and 2.01 cm and 2.12 cm and 2.13 cm
O=C(O)C1(O)Oc2ccccc2N(Cc2ccccc2)C1=O (stereo not drawn),1.93 cm and 1.89 cm and 1.91 cm and 1.94 cm
CN1C(=O)C(O)(C(=O)O)Oc2cc(F)ccc21 (stereo not drawn),2.1 cm and 2.05 cm and 2.11 cm and 2.06 cm

# Study 3
# SMILES: C[C@@H]1CN(c2ccc(-c3cc(C(=O)NCCOCCOCCOCCOCCNC(=O)Cn4cc(-c5[nH]cc(C(=O)N[C@@H](CC(N)=O)c6ccc(F)c(Cl)c6)c5-c5ccc(Cl)cc5F)cn4)ccc3F)cc2NC(=O)c2c[nH]c(=O)cc2C(F)(F)F)C[C@H](C)N1C
# Effect on: thermal unfolding
# Method: differential scanning fluorimetry
# Concentration: 5.5 µM
# Direction: higher = more unfolded
# DCAF1: DDB1- and CUL4-associated factor 1 (DCAF1, Homo sapiens, UniProt Q9Y4B6)
# Chain of UniProt Q9Y4B6 (whole entry, looked up): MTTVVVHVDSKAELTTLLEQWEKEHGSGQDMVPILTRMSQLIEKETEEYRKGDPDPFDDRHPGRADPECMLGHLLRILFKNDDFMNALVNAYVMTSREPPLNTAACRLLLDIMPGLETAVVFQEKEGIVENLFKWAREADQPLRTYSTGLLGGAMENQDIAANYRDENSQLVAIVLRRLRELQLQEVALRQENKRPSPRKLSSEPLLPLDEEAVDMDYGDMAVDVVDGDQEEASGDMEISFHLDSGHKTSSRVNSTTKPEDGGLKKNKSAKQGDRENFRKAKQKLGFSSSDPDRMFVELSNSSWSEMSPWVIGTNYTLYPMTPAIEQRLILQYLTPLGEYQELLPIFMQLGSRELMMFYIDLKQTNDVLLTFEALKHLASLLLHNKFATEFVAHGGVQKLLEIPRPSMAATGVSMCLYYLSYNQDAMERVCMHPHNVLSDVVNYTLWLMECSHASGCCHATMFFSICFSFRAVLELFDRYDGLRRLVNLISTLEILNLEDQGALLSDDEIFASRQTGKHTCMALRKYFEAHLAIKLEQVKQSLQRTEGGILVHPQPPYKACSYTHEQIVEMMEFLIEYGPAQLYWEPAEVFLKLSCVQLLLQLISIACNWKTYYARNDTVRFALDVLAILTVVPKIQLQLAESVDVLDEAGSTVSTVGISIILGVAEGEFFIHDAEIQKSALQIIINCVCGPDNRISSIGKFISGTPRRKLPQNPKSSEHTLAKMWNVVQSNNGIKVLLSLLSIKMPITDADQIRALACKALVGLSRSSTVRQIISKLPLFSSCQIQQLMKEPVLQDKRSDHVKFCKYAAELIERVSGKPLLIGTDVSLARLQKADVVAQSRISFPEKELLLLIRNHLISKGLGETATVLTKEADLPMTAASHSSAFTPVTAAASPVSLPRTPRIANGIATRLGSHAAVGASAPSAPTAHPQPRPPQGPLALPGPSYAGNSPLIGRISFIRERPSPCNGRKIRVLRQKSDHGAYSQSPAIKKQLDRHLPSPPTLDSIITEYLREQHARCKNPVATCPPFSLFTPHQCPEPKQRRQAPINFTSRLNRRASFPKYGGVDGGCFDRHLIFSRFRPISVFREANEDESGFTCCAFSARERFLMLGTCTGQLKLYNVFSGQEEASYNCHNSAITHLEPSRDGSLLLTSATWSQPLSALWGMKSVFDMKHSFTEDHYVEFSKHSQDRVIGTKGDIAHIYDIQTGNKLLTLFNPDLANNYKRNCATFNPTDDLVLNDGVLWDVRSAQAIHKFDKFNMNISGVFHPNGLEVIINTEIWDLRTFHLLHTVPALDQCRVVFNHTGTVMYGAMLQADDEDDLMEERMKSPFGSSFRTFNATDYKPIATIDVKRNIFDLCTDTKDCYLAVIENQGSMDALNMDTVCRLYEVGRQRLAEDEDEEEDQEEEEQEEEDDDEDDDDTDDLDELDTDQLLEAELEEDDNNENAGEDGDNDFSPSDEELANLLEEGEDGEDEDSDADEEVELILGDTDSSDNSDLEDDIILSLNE
# WDR5: WD repeat-containing protein 5 (WDR5, Homo sapiens, UniProt P61964)
target,setting,SYPRO Orange fluorescence [a.u.]
DCAF1,56.01 °C,21800
DCAF1,94.61 °C,30300
DCAF1,88.41 °C,36600
WDR5,34.4 °C,14300
WDR5,36 °C,14200
WDR5,43 °C,14300
DCAF1,41.2 °C,10900
DCAF1,41 °C,10800
WDR5,89.21 °C,43500
WDR5,77.01 °C,14800
WDR5,54.81 °C,13700

# Mixed results
# Target: Sodium-dependent neutral amino acid transporter B(0)AT1 (SLC6A19, Homo sapiens, UniProt Q695T7)
# Chain of UniProt Q695T7 (whole entry, looked up): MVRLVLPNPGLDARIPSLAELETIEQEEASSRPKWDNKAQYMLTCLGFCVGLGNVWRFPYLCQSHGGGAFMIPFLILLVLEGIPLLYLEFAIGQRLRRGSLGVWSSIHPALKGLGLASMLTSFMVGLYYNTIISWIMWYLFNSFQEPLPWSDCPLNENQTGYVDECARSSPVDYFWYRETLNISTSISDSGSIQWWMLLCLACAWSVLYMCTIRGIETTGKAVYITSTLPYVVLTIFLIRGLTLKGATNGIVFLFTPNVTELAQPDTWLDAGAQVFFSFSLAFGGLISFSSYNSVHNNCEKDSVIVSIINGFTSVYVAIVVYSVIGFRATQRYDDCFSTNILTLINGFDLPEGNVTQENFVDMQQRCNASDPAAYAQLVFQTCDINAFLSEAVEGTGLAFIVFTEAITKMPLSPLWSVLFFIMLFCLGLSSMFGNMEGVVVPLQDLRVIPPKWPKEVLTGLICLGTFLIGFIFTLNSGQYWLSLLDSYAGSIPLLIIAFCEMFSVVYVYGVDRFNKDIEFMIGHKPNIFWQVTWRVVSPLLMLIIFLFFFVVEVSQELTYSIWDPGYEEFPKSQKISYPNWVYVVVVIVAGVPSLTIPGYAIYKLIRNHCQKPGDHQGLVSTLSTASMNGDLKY
# Mode: inhibitor
# Cells: CHO-BC cells
Structure (SMILES),assay,setting,how to read,endpoint,value
CC(C)NC(=O)COc1ccc2ccccc2c1,FLIPR membrane potential,"10 µM, unit not given",reference: no inhibitor,remaining transport activity,0.298
CC(C)NC(=O)COc1cccc2ccccc12,L-[14C]leucine uptake,with: L-leucine 150 µM,,IC50,6 ± 2 µM
CCNC(=O)COc1ccc(I)c(C)c1,L-[14C]leucine uptake,"0.01 µM, 6 min, 37 °C, unit not given, with: GPNA 3 mM, JPH203 3 µM",reference: uninhibited cells,remaining transport activity,0.847
CNC(=O)COc1cc(C)c(Cl)c(C)c1,L-[14C]leucine uptake,with: L-leucine 150 µM,,IC50,20 ± 10 µM

# Repeated from above (study 3):
target,setting,SYPRO Orange fluorescence [a.u.]
DCAF1,94.61 °C,30300
DCAF1,88.41 °C,36600
